Assay results pooled from the literature.
Compare with care: the assays were run in different laboratories. Numbers after ± are the reported error.

With `CCN(CC)C(=O)[C@@H]1C=C2c3cccc4[nH]cc(c34)C[C@H]2N(C)C1` the half-life was 3.6 h (human, plasma; dose not given, after placebo pretreatment).
`OCc1ncc2n1-c1ccc(Cl)cc1C(c1ccccc1F)=NC2` has a half-life of 6 h (humans, plasma; 3 mg of midazolam, together with: isavuconazole).
For `C[C@]1(CO)Cc2ncn(-c3ccc(C#N)c(Cl)c3)c2C(=O)O1`, the half-life was 6.1 h (human, Chinese, plasma; 20 mg single dose, geometric mean).
`C[C@H](NC(=O)c1c(C(F)F)nn(C)c1Oc1cccc(C(F)(F)F)c1)c1ccc(C(=O)O)cc1` has a half-life of 8.9 h (human, plasma; 250 mg, cycle 1 day 8, mean).
`CCCCCCCCCCC(=O)O[C@H]1CC[C@H]2[C@@H]3CCC4=CC(=O)CC[C@]4(C)[C@H]3CC[C@]12C` gave a half-life of 9.1 h (item: testosterone; human, plasma; oral, 237 mg testosterone undecanoate, geometric mean).
`N[C@@H](Cc1ccc(O)c(O)c1)C(=O)O` gave a half-life of 2.14 h (item: carbidopa; healthy human volunteers, plasma; subcutaneous, 24 h infusion, harmonic mean, crossover).
The half-life of `Cn1nc(NS(C)(=O)=O)c2c(Cl)ccc(-n3c([C@H](Cc4cc(F)cc(F)c4)NC(=O)Cn4nc(C(F)F)c5c4C(F)(F)[C@@H]4C[C@H]54)nc4nc(OCCC(F)(F)F)ccc4c3=O)c21` is reported as 64.2 h (human, plasma; oral, 200 mg single dose, tablet, geometric mean).
`OCc1ncc2n1-c1ccc(Cl)cc1C(c1ccccc1F)=NC2` has a half-life of 5.48 h (healthy human volunteers, plasma; 5 mg single dose, day 1, fed, given alone).
The half-life of `OCc1ncc2n1-c1ccc(Cl)cc1C(c1ccccc1F)=NC2` is reported as 3.7 h (human, plasma; 7.5 mg midazolam, day 19, arithmetic mean, metabolite of midazolam, together with: midazolam 7.5 mg alone).
For `COc1ccc2c(c1)[C@]13CCCC[C@@H]1[C@H](C2)N(C)CC3`, the half-life was 15.8 ± 3.19 h (human female; 30 mg, day 0).
`O=c1ccc2ncc(=O)n3c2n1C[C@H]3CN1CCC(NCc2cc3c(cn2)OCCC3)CC1` has a half-life of 11.2 h (healthy human volunteers, plasma; oral, 1500 mg single dose, arithmetic mean, alone).
For `CC(C)c1nc(N(C)S(C)(=O)=O)nc(-c2ccc(F)cc2)c1/C=C/[C@@H](O)C[C@@H](O)CC(=O)O`, the half-life was 16 h (healthy human subjects, plasma; oral, 20 mg, day 1, alone, geometric mean).
`CC(=O)c1c(C)c2cnc(Nc3ccc(C4CCN(CCS(C)(=O)=O)CC4)cn3)nc2n(C2CCCC2)c1=O` gave a half-life of 6.67 h (human, plasma; oral, 75 mg twice daily, day 1, single dose, together with: letrozole).
